Assay results collected from several papers.
Every numbered part comes from another study and shows a few of its results, in no order.
Chain of UniProt P00519 (whole entry, unmodified, looked up): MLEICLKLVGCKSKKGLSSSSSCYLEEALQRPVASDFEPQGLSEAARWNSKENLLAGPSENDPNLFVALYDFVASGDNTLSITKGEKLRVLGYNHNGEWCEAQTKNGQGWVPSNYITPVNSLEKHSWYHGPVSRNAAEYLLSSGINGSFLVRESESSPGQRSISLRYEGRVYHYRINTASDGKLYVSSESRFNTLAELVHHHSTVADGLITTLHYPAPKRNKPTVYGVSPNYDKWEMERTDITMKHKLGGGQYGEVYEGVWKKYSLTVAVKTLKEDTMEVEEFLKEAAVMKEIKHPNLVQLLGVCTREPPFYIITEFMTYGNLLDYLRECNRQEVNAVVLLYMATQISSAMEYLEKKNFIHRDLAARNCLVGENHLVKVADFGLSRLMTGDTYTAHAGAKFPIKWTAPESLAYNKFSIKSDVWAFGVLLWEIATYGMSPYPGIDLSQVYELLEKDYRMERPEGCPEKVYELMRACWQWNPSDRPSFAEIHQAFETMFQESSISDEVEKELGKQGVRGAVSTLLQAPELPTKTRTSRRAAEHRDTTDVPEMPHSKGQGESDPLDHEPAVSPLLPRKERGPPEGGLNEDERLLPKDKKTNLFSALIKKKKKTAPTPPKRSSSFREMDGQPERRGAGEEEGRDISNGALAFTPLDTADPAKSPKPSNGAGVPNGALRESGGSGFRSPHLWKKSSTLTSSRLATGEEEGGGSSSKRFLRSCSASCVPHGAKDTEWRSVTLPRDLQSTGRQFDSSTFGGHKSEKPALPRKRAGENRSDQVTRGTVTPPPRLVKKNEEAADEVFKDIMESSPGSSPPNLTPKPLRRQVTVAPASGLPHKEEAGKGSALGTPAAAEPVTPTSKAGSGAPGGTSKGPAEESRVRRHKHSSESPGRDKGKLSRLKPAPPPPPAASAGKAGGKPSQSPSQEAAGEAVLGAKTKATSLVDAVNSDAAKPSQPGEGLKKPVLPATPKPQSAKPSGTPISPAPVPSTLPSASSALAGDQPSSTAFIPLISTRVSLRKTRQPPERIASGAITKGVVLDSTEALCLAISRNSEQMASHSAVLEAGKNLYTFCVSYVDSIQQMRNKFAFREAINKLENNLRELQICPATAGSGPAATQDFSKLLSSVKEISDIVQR
Chain of UniProt Q8WTQ7 (whole entry, looked up): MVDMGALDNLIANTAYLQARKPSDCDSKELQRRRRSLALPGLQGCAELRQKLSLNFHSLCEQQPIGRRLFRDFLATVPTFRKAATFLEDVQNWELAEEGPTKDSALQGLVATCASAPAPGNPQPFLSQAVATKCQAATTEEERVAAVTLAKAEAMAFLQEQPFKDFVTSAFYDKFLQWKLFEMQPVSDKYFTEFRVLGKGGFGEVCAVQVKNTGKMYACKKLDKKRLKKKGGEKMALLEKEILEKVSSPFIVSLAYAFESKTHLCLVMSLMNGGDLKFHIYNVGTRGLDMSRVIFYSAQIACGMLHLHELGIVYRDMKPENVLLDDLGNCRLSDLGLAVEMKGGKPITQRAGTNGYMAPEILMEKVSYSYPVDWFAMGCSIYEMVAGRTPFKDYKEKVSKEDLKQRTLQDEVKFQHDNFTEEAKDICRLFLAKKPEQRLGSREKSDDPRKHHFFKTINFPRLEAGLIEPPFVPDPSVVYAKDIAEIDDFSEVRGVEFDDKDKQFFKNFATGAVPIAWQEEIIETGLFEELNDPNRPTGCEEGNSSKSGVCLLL
Chain of UniProt Q9HBY8 (whole entry, looked up): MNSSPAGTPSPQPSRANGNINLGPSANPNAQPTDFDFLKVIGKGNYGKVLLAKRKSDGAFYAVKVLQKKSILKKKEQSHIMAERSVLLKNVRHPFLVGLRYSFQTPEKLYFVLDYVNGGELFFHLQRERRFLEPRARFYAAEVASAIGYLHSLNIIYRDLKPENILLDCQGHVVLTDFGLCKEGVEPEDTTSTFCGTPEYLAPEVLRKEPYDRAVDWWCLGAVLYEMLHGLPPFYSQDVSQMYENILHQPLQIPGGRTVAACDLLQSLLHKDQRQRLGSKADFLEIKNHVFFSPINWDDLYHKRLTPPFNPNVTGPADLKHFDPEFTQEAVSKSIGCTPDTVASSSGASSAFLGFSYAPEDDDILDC
Chain of UniProt Q8WXR4 (whole entry, looked up): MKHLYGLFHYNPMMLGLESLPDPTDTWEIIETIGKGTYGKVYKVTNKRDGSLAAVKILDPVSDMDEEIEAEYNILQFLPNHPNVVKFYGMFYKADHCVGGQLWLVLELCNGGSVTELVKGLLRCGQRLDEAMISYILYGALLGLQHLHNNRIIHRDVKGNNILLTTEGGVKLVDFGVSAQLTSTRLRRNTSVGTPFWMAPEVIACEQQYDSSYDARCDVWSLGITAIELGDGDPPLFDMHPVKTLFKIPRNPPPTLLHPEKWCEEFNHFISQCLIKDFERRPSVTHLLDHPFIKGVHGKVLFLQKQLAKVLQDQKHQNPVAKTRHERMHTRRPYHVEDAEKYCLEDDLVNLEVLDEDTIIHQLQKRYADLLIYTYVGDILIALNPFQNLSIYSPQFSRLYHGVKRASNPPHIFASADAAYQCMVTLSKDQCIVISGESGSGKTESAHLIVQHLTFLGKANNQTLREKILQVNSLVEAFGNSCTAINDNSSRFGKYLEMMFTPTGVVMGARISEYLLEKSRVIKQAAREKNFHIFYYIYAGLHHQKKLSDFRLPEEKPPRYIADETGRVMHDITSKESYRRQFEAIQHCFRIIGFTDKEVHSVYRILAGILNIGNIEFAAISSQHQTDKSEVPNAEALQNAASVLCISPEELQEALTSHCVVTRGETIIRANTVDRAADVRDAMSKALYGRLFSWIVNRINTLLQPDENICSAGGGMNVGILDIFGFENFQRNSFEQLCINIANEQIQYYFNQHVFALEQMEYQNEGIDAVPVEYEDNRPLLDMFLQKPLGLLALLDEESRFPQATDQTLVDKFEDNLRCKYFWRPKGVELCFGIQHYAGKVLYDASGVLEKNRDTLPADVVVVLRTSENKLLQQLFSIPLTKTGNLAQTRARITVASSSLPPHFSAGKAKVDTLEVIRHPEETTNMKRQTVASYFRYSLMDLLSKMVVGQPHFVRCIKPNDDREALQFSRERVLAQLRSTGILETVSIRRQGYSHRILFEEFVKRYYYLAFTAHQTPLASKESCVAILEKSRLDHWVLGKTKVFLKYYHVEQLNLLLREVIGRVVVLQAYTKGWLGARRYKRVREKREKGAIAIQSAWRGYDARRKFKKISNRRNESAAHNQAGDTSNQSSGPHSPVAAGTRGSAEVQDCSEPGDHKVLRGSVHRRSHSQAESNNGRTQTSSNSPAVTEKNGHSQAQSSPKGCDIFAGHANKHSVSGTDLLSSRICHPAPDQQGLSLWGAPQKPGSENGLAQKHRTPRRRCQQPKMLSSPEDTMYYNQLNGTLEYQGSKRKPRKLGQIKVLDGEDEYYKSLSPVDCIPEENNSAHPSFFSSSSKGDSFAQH
Chain of UniProt P0C264 (whole entry, looked up): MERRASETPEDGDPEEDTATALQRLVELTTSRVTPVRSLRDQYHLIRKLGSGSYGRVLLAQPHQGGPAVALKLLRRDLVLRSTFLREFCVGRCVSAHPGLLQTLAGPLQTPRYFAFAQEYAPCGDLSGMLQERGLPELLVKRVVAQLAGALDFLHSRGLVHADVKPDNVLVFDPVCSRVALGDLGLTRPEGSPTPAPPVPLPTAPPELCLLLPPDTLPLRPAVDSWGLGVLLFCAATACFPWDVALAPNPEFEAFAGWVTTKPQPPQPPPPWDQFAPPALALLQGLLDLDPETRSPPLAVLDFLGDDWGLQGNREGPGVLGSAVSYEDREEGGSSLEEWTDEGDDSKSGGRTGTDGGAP

Sample 1 — effect on: binding; technique: radioligand binding; tested at: 10 µM
Target: Alpha-1D adrenergic receptor (ADRA1D, Homo sapiens, UniProt P25100)
Chain of UniProt P25100 (whole entry, looked up): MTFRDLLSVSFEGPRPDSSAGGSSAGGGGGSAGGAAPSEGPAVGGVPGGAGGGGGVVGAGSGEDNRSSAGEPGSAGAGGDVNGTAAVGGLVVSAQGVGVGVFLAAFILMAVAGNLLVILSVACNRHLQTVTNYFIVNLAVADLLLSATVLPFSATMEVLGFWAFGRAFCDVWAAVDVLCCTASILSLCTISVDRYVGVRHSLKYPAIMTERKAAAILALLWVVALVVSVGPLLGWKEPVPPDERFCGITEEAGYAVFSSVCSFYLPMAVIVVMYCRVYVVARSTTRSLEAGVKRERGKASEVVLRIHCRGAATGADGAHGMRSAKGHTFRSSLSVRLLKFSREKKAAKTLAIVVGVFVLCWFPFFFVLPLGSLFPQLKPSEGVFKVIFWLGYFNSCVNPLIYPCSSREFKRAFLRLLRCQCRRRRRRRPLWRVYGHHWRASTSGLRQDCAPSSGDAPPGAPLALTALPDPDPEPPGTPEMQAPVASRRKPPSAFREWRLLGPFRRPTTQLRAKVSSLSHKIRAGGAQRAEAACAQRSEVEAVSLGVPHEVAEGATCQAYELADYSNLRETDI
Structure (SMILES) | inhibition [%]
O=C(Nc1ccc(-n2nc(-c3cccnc3)cc2C(F)(F)F)cn1)c1ccc(-c2ccccc2)c(F)c1 | 18.3
C[C@H](NC(=O)c1cnc2n1[C@](C)(Cc1ccc(C#N)cc1)C(=O)N2c1cc(Cl)c(F)c(Cl)c1)C(=O)NC1(c2ccccn2)CC1 | -18.5
CC1=C(C#N)[C@@H](c2ccc3[nH]nc(C)c3c2)C(C#N)=C(c2ccc(Cl)cc2)N1 | 7.73
COCCc1ccc(-c2c(C)nc3c(N4CCOCC4)ccnn23)cn1 | 15.3
COc1nc2ccc([C@@](O)(c3ccccc3)C3CCN(C(C)=O)CC3)cc2c(Cl)c1Cc1ccc(-n2cccn2)cc1 | 6.64
Cc1nc(N2CC[C@@H](O)C2)ncc1-c1cc(C(F)(F)F)cc2[nH]ncc12 | -10.6
Nc1c(C(=O)NCc2ccc(C(=O)NCCCC3CCCCC3)cc2)cnn1-c1ccccc1 | 22
O=C(Nc1cccnn1)N1CCC(=Cc2cccc(Oc3ccc(C(F)(F)F)cn3)c2)CC1 | 3.84
O=C1c2ccc(Nc3ccc(F)cc3F)cc2CCc2ccc(OC[C@H](O)CO)cc21 | 19.5
Cc1c(NC(=O)c2cc(C(N)=O)nc3cc(F)ccc23)c(C(F)(F)F)nn1Cc1ccc(C(C)(C)C)cc1 | 2.92
Cc1cc(-n2nc(Cc3cc(F)cc(C(F)(F)F)c3)nc2C)ccc1C(N)=O | 3.15
COc1cc(-c2cn(C3CCc4ccccc4N(CC(F)(F)F)C3=O)nn2)ccc1-n1ccc(C)n1 (stereo not shown) | -17.3
CC(=O)c1c(NS(C)(=O)=O)c2cc(-c3ccc(Cl)cc3)c(-c3ccc(Cl)cc3Cl)nc2n(C)c1=O | 15.9
Cc1nc(Cc2cccc(C(F)(F)F)c2)sc1-c1ccc(C(N)=O)nc1 | -5.68
CCOCCn1cc(C(=O)Nc2ccc(-n3nc(-c4cccnc4)cc3C(F)(F)F)cn2)ccc1=O | -14.4
COc1cccc(CNC(=O)c2nc3scc(COCc4ccc(C(=O)O)cc4)c3c(=O)[nH]2)c1 | -5.4
O=C(O)c1cc(-c2ccc(C3CCNCC3)cc2)c2ccc(-c3ccc(C(F)(F)F)cc3)cc2c1 | 33.5
CN1CCN(C(=O)C(C)(C)c2ccc(C(=O)Nc3cn4cc(-c5ccncc5)ccc4n3)cc2)CC1 | -12.4
O[C@]1(C(F)(F)F)CCCC[C@H]1Nc1ccc(F)cc1 | -2.73
Cc1nc(C2CCN(C(=O)c3ccc(OC(F)(F)F)cc3N)CC2)c2ncc(N3CCN(C)CC3)cc2n1 | 5.29
C[C@@H]1CN(c2cc(-c3nn(C)c4ccc(OC5(C)CC5)cc34)ncn2)C[C@H](C)O1 | 10.2
O=C1CCc2cc(Nc3cc(OC4CCOCC4)c([N+](=O)[O-])cc3Cl)ccc2N1 | 3.49
CN1C(=O)[C@@H](N2CCc3cn(Cc4ccccc4)nc3C2=O)COc2ccccc21 | -0.3
O=C(Nc1cnc(Oc2ccc(F)cc2)nc1)N1CCc2ncccc2[C@@H]1c1ccc(F)cc1 | 8.01
CC(=O)Nc1nc(CN2CCC[C@H](Cc3cc(C)nc(C)c3)C2)cs1 | 7.45

Sample 2 — effect on: enzyme activity; action: inhibitor; tested at: 0.5 µM; reference: control
Target: Serine/threonine-protein kinase TAO1 (TAOK1, Homo sapiens, UniProt Q7L7X3)
Residues (Q7L7X3 1-1001): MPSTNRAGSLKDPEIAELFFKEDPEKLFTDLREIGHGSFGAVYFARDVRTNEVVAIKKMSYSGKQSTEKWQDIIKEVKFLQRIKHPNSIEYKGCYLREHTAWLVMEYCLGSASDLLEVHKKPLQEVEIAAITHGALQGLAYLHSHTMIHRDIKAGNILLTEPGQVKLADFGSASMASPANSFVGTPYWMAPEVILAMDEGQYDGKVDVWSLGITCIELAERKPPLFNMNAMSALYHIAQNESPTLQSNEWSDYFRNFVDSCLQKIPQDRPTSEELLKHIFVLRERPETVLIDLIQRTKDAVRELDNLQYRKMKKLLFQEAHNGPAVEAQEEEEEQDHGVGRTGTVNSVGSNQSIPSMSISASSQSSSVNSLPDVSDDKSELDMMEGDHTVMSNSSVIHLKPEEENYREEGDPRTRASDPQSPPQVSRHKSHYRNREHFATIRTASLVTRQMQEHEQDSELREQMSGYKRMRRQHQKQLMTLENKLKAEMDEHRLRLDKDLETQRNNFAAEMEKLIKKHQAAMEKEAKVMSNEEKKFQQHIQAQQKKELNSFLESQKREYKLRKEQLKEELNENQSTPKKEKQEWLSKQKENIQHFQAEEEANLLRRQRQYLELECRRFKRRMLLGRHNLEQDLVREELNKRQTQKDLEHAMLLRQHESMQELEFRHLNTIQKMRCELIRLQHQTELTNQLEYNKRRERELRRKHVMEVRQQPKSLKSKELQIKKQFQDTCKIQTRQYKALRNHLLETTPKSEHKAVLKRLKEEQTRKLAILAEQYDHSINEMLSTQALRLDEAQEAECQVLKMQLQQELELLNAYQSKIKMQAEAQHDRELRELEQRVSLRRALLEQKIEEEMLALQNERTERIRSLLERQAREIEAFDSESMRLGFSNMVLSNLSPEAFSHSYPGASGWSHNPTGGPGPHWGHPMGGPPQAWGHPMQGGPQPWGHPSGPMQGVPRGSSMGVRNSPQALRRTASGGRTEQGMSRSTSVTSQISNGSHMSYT
Compound | remaining activity
O=C1NC(=O)/C(=C/c2ccc3nccnc3c2)S1 | 82.8%
CS(=O)(=O)CCNCc1ccc(-c2ccc3ncnc(Nc4ccc(OCc5cccc(F)c5)c(Cl)c4)c3c2)o1 | 98.8%
O=C(Nc1ccc(Cl)cc1)c1ccccc1NCc1ccncc1 | 110%
CC(=O)O/N=C1/C(c2c(O)[nH]c3cc(Br)ccc23)=Nc2ccccc21 | 126%
COc1ccc(Cl)cc1NC(=O)Nc1cc(C)nc2ccccc12 | 103%
Cc1nc(Nc2ncc(C(=O)Nc3c(C)cccc3Cl)s2)cc(N2CCN(CCO)CC2)n1 | 101%
COc1cc2ncnc(N3CCN(C(=O)Nc4ccc(Oc5ccccc5)cc4)CC3)c2cc1OC | 81.6%
COc1cc2ncc(-c3ccccc3)nc2cc1OC | 104%
Nc1[nH]nc2nnc(-c3c(-c4ccccc4)nn4ccccc34)cc12 | 95.8%
CC(C)c1nn(-c2c(Cl)cccc2Cl)c2nc(Cc3ccc(OCCO)cc3)[nH]c(=O)c12 | 72.1%
CC(C)[C@H](CO)Nc1nc(Nc2cccc(Cl)c2)c2ncn(C(C)C)c2n1 | 95.4%
Cn1cc(/C=C2\C(=O)Nc3ccc(S(N)(=O)=O)cc32)c2ccccc21 | 98.3%
COc1ccc(-c2cnc3c(-c4ccsc4)cnn3c2)cc1 | 105%
CN(C)CCCn1cc(C2=C(c3c[nH]c4ccccc34)C(=O)NC2=O)c2ccccc21 | 80.8%
CCOc1cc2ncnc(Nc3cccc(Br)c3)c2cc1OCC | 99.9%
C[S+]([O-])c1ccc(-c2nc(-c3ccncc3)c(-c3ccc(F)cc3)[nH]2)cc1 (stereo not shown) | 97.9%
Cn1cnc2cc3c(Nc4cccc(Br)c4)ncnc3cc21 | 92.4%
CCN1/C(=C/C(C)=O)Sc2ccc(OC)cc21 | 92.4%
CCC(=O)Nc1ccc2ncnc(Nc3cccc(Br)c3)c2c1 | 79.1%
COc1cc2ncnc(Nc3ccc(OCc4ccccc4)cc3)c2cc1OC | 94.4%
O=c1cc(N2CCOCC2)oc2c1ccc1ccccc12 | 97.5%
Cc1ccc(NC(=O)c2ccc(CN3CCN(C)CC3)cc2)cc1Nc1nccc(-c2cccnc2)n1 | 101%

Sample 3 — action: inhibitor; tested at: 1 µM
SMILES: CC#CC(=O)N1CCC[C@H]1c1nc(-c2ccc(C(=O)Nc3ccccn3)cc2)c2c(N)nccn12
target | test | inhibition [%]
Myosin-IIIb (MYO3B, Homo sapiens, UniProt Q8WXR4) | enzyme activity | 12
CDC42BPA (Homo sapiens, UniProt Q5VT25) | enzyme activity | 0
Tyrosine-protein kinase ABL1, phosphorylated (ABL1, Homo sapiens, UniProt P00519, F317I) | enzyme activity | 0
GRK7 (Homo sapiens, UniProt Q8WTQ7) | enzyme activity | 6
Non-receptor tyrosine-protein kinase TYK2, JH2 pseudokinase domain (TYK2, Homo sapiens, UniProt P29597) | – | 0
FLT3 (Homo sapiens, UniProt P36888) | enzyme activity | 6
FLT3 (Homo sapiens, UniProt P36888, D835V/ITD) | enzyme activity | 0
SBK3 (Homo sapiens, UniProt P0C264) | enzyme activity | 15
STK32B (Homo sapiens, UniProt Q9NY57) | enzyme activity | 20
RIOK2 (Homo sapiens, UniProt Q9BVS4) | enzyme activity | 26
PIK3CA (Homo sapiens, UniProt P42336, M1043I) | enzyme activity | 0
RET (Homo sapiens, UniProt P07949, M918T) | enzyme activity | 3
PIKFYVE (Homo sapiens, UniProt Q9Y2I7) | enzyme activity | 0
MAP3K13 (Homo sapiens, UniProt O43283) | enzyme activity | 37
CDK18 (Homo sapiens, UniProt Q07002) | enzyme activity | 0
MKNK2 (Homo sapiens, UniProt Q9HBH9) | enzyme activity | 10
SGK2 (Homo sapiens, UniProt Q9HBY8) | enzyme activity | 0
CDC42BPG (Homo sapiens, UniProt Q6DT37) | enzyme activity | 22
SGK3 (Homo sapiens, UniProt Q96BR1) | enzyme activity | 0

Sample 4 — effect on: enzyme activity; action: inhibitor; tested at: 10 µM
Target: Calcium/calmodulin-dependent protein kinase type II subunit alpha (CAMK2A, Homo sapiens, UniProt Q9UQM7)
Chain of UniProt Q9UQM7 (whole entry, looked up): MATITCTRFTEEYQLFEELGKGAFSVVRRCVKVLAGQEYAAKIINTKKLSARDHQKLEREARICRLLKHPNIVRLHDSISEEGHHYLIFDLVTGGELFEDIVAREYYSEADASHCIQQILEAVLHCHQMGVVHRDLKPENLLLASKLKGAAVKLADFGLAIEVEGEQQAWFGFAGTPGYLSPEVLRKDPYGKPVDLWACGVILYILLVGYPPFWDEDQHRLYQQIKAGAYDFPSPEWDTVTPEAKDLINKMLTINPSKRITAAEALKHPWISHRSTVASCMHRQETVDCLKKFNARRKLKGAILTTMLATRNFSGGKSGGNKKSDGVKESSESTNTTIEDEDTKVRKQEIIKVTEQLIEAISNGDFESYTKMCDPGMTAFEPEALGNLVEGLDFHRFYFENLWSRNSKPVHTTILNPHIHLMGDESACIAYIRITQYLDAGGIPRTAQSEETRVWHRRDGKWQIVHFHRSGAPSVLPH
Structure (SMILES) | inhibition [%]
CC1=C[C@H]2[C@@H](CC1)[C@H](C)CC[C@H]2[C@@H](C)C(=O)O | -17
OC[C@H]1O[C@@H](Oc2cc(O)cc(/C=C/c3ccc(O)c(O)c3)c2)[C@H](O)[C@@H](O)[C@@H]1O | -30
C=CC(=O)N1CCN(c2nc(=O)n(-c3c(C)ccnc3C(C)C)c3nc(-c4c(O)cccc4F)c(F)cc23)[C@@H](C)C1 | -0.03
CCN[C@@H]1C[C@H](N)[C@@H](O[C@H]2OC(CN)=CC[C@H]2N)[C@H](O)[C@H]1O[C@H]1OC[C@](C)(O)[C@H](NC)[C@H]1O | 6
CO/N=C(\C(=O)N[C@@H]1C(=O)N2C(C(=O)O)=C(CSc3nnnn3C)CS[C@H]12)c1csc(N)n1 | -2
Cc1c(O)cc2c(c1O)C(=O)c1ccccc1C2=O | 6
CC(C)=CCC[C@](C)(O[C@@H]1O[C@H](CO)[C@@H](O)[C@H](O)[C@H]1O)[C@H]1CC[C@]2(C)[C@@H]1[C@H](O)C[C@@H]1[C@@]3(C)CC[C@H](O[C@@H]4O[C@H](CO)[C@@H](O)[C@H](O)[C@H]4O)C(C)(C)[C@@H]3CC[C@]12C | -1
CCO[C@@H]1O[C@H](C(=O)O)[C@@H](O)[C@H](O)[C@H]1O | -30
CC(=O)Oc1cccc2c1C(=O)c1c(OC(C)=O)cc(C(=O)O)cc1C2=O | 30
C[C@@H](O)[C@H](N)C(=O)O | 16
NNc1nncc2ccccc12 | -14
CCOC(=O)C1=C[C@]2(CC)CCCN3CCc4c(n1c1ccccc41)[C@@H]32 | 10
C[C@@H]1O[C@@H](OC[C@H]2O[C@@H](Oc3c(-c4ccc(O)cc4)oc4cc(O)cc(O)c4c3=O)[C@H](O[C@@H]3O[C@@H](C)[C@H](O)[C@@H](O)[C@H]3O)[C@@H](O)[C@@H]2O)[C@H](O)[C@H](O)[C@H]1O | -7
C=CC(C)(CCC=C(C)C)OC(C)=O (stereo not shown) | -63
O=S(=O)(c1cccc2cnccc12)N1CCCNCC1 | -3
COc1cc(/C=C/c2ccc(O)cc2)cc(OC)c1 | -32

Repeated from above (sample 4):
Structure (SMILES) | inhibition [%]
CO/N=C(\C(=O)N[C@@H]1C(=O)N2C(C(=O)O)=C(CSc3nnnn3C)CS[C@H]12)c1csc(N)n1 | -2
Cc1c(O)cc2c(c1O)C(=O)c1ccccc1C2=O | 6
CC(C)=CCC[C@](C)(O[C@@H]1O[C@H](CO)[C@@H](O)[C@H](O)[C@H]1O)[C@H]1CC[C@]2(C)[C@@H]1[C@H](O)C[C@@H]1[C@@]3(C)CC[C@H](O[C@@H]4O[C@H](CO)[C@@H](O)[C@H](O)[C@H]4O)C(C)(C)[C@@H]3CC[C@]12C | -1
CCO[C@@H]1O[C@H](C(=O)O)[C@@H](O)[C@H](O)[C@H]1O | -30
CC(=O)Oc1cccc2c1C(=O)c1c(OC(C)=O)cc(C(=O)O)cc1C2=O | 30
C[C@@H](O)[C@H](N)C(=O)O | 16
NNc1nncc2ccccc12 | -14
CCOC(=O)C1=C[C@]2(CC)CCCN3CCc4c(n1c1ccccc41)[C@@H]32 | 10
C[C@@H]1O[C@@H](OC[C@H]2O[C@@H](Oc3c(-c4ccc(O)cc4)oc4cc(O)cc(O)c4c3=O)[C@H](O[C@@H]3O[C@@H](C)[C@H](O)[C@@H](O)[C@H]3O)[C@@H](O)[C@@H]2O)[C@H](O)[C@H](O)[C@H]1O | -7
C=CC(C)(CCC=C(C)C)OC(C)=O (stereo not shown) | -63
O=S(=O)(c1cccc2cnccc12)N1CCCNCC1 | -3
COc1cc(/C=C/c2ccc(O)cc2)cc(OC)c1 | -32
